Measurements of several laboratories.
Lines come from different studies, so protocols differ. ± gives the spread as reported.
CNGA1: Cyclic nucleotide-gated channel alpha-1 (CNGA1, Bos taurus, UniProt Q00194)
UniProt Q00194, sequence (whole entry, looked up): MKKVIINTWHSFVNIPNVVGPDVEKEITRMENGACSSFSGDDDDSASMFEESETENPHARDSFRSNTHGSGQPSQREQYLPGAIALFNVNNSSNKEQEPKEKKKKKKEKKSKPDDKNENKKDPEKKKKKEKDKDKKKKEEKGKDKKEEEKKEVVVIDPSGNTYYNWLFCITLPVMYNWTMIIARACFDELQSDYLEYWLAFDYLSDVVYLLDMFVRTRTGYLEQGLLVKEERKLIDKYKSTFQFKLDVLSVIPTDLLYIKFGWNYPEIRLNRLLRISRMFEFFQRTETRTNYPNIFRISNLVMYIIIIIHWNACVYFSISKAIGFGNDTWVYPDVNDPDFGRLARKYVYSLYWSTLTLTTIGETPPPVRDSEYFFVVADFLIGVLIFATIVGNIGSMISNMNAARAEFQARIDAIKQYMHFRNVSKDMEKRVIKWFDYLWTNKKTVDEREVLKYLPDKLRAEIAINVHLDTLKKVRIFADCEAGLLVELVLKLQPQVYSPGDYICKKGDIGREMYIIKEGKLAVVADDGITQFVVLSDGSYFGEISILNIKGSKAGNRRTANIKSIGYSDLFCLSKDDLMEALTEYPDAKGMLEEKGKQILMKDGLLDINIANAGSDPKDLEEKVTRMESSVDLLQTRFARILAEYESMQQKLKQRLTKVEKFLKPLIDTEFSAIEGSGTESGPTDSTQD
Aldo-keto reductase family 1 member A1: Aldo-keto reductase family 1 member A1 (Bos taurus, UniProt Q3ZCJ2)
UniProt Q3ZCJ2, sequence (whole entry, looked up): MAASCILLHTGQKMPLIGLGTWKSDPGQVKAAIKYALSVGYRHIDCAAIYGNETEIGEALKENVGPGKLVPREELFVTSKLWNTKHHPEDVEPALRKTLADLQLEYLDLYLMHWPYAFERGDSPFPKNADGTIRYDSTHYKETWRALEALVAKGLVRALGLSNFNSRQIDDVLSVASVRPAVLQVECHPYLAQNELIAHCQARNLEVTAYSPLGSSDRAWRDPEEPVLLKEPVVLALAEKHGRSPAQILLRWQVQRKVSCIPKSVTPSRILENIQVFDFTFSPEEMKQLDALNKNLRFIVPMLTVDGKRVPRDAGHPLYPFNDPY
EPHX1: Epoxide hydrolase 1 (EPHX1, Homo sapiens, UniProt P07099)
UniProt P07099, sequence (whole entry, looked up): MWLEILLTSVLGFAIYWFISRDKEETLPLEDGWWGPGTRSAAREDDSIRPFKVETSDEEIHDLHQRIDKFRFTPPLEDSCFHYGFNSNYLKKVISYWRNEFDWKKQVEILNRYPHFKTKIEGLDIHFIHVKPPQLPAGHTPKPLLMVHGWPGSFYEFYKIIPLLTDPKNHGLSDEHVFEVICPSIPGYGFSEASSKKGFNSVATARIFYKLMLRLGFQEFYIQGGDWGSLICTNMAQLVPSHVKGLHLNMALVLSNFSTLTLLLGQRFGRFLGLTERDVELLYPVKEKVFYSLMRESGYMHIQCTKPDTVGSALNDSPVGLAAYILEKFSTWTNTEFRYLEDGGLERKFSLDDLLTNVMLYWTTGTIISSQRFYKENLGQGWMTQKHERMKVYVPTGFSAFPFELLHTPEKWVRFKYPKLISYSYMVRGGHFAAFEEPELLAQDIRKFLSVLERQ
SLC51A with OSTβ: Organic solute transporter subunit alpha, with OSTβ (SLC51A, Homo sapiens, UniProt Q86UW1)
UniProt Q86UW1, sequence (whole entry, looked up): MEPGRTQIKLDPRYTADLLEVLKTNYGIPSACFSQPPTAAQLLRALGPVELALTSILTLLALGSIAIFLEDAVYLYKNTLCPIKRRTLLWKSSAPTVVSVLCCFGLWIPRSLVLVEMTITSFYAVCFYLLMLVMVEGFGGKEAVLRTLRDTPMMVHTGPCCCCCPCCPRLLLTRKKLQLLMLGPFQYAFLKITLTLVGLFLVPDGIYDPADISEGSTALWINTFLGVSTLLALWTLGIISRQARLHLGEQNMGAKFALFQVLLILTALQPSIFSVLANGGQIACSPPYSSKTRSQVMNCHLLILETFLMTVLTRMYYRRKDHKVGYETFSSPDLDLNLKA
PLA2G5: Phospholipase A2 group V (PLA2G5, Homo sapiens, UniProt P39877)
UniProt P39877, sequence (whole entry, looked up): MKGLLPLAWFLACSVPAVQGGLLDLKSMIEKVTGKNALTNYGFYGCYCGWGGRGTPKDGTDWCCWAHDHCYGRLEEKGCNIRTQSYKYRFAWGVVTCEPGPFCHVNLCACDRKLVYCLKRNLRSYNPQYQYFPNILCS
UniProt P28221, sequence (whole entry, looked up): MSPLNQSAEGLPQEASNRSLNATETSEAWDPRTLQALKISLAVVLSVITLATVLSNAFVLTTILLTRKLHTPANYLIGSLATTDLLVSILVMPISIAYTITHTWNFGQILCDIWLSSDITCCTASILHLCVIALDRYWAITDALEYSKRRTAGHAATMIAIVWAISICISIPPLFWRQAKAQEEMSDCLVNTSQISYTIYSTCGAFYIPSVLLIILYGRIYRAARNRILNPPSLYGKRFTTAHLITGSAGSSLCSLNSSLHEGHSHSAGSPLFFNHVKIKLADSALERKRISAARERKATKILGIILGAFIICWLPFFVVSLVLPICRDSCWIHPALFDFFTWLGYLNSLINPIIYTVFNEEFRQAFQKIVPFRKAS
UniProt Q00534, sequence (whole entry, looked up): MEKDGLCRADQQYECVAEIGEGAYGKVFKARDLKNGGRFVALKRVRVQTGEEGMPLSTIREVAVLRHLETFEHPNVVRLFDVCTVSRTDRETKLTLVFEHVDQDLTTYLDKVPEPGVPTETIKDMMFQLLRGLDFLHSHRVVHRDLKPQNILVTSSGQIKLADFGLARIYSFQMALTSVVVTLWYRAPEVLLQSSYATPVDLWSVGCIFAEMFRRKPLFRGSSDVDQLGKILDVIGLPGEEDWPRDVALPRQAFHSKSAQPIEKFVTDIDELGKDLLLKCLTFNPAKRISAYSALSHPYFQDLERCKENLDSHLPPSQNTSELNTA
UniProt Q9Y6F1, sequence (whole entry, looked up): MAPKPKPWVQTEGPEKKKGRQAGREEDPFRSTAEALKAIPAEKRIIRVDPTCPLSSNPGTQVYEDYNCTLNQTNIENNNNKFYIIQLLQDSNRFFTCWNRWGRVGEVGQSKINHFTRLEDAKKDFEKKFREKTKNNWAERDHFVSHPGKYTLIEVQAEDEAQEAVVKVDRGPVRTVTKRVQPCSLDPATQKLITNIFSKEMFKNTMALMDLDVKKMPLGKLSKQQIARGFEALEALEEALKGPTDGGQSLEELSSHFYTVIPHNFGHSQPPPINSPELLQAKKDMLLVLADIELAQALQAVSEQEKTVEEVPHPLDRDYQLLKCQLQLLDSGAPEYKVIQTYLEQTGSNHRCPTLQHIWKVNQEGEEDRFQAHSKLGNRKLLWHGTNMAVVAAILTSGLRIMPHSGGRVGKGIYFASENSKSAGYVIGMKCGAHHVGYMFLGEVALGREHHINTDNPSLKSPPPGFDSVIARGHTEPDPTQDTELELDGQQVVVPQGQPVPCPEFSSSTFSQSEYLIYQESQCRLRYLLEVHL
UniProt Q9GZV9, sequence (whole entry, looked up): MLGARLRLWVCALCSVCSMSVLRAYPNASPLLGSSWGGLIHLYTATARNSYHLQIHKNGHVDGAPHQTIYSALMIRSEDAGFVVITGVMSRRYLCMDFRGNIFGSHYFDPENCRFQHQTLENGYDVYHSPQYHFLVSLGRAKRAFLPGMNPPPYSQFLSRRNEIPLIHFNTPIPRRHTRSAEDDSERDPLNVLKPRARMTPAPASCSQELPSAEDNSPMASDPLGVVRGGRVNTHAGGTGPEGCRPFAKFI
UniProt Q9NRA0, sequence (whole entry, looked up): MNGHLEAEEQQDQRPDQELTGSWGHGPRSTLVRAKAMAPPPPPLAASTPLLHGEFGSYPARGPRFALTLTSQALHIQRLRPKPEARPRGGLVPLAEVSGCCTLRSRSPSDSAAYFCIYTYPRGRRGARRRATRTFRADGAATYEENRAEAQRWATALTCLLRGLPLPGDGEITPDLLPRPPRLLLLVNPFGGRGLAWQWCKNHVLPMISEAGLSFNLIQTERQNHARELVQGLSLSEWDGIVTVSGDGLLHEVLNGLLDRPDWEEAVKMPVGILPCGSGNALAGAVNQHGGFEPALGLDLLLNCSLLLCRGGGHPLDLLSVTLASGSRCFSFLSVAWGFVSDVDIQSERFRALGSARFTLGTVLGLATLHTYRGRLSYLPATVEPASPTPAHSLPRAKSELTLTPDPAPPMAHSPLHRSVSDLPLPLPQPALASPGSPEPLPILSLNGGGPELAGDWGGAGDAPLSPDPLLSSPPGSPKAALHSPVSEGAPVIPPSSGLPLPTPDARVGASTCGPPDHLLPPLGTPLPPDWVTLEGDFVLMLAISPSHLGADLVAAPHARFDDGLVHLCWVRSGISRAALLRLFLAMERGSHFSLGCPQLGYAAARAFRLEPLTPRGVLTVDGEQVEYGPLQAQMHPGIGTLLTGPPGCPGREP

Molecule = O=C1NCC(c2ccccc2)C(O)c2ccccc21 (racemic); target = PARP3 (Homo sapiens, UniProt Q9Y6F1); test = enzyme activity, inhibitor; conditions = 10 µM; inhibition = 91%
Molecule = O=c1c(-c2ccc(O)cc2)coc2cc(O)cc(O)c12; target = CNGA1; test = ion current, inside-out patch clamp; system = Xenopus oocytes; conditions = 100 µM, erbstatin 100 µM pretreatment, with: cGMP 2 mM; inhibition = 5.4 ± 1.7%
Molecule = O/N=C/C1=C(/C=C/c2ccc(F)cc2)CCC1; target = Fibroblast growth factor 23 (Homo sapiens, UniProt Q9GZV9); test = ERK reporter gene, inhibitor; system = HEK293T expressing FGFR and α-Klotho; conditions = 10 µM, with: FGF-23; inhibition = 100%
Molecule = CC(C)(C)c1cnc(CSc2cnc(NC(=O)C3CCN(CC(=O)NCCOCCOCCOCCNc4cccc5c4C(=O)N(C4CCC(=O)NC4=O)C5=O)CC3)s2)o1 (centres unmarked); target = CDK6 (Homo sapiens, UniProt Q00534); test = probe labeling, KiNativ live-cell profiling; system = MOLT-4 CRBN knockout; conditions = 0.25 µM; inhibition = 6.6%
Molecule = Fc1ccccc1SSc1ccccc1F; target = tubulin; test = colchicine binding, [3H]colchicine binding; conditions = 5 µM, 10 min, 37 °C, with: [3H]colchicine 5.0 µM; inhibition = 0 ± 4%
Molecule = C/C(=N/N=c1/scc(-c2ccc(Br)cc2)n1-c1ccccc1)c1ccc2c(c1)NC(=O)CO2; target = Aldo-keto reductase family 1 member A1; test = enzyme activity, inhibitor, absorbance; conditions = 1 mM; inhibition = 22.6%
Molecule = CCCCCCCC(=O)OC[C@H](CO)OC(=O)CCCCCCC; target = CNGA1; test = cGMP-activated current, inside-out patch, Xenopus oocytes; conditions = 0.5 µM, with: cGMP 2 mM, saturating; inhibition = ~42%
Molecule = O=c1c(-c2ccc(O)cc2)coc2cc(O)cc(O)c12; target = CNGA1; test = cGMP-activated current, closed-channel blocker, inside-out patch clamp; system = Xenopus oocytes; conditions = concentration not given, 1 min preapplication, with: saturating cGMP; inhibition = 98 ± 3%
Molecule = Cc1ccc(O)c(C=NNC(=S)Nc2ccc(C(C)C)cc2)c1; target = Aldo-keto reductase family 1 member A1; test = inhibitor; system = Bos taurus (calf); conditions = 100 µM, with: D-glucuronate substrate; inhibition = 41.5%
Molecule = C/C(=N/N=c1/scc(-c2ccc(Cl)cc2)n1-c1ccccc1)c1ccc2c(c1)NC(=O)CO2; target = Aldo-keto reductase family 1 member A1; test = enzyme activity, inhibitor, absorbance; conditions = 1 mM; inhibition = 31.3%
Molecule = CCCCCCCCCCCCNS(C)(=O)=O; target = EPHX1; test = enzyme activity, inhibitor, fluorescence; conditions = 100 µM; inhibition = 40%
Molecule = C/C(=N/N=c1/scc(-c2ccc(Cl)cc2)n1-c1ccc(F)cc1)c1ccc2c(c1)NC(=O)CO2; target = Aldo-keto reductase family 1 member A1; test = enzyme activity, inhibitor, absorbance; conditions = 1 mM; inhibition = 22.6%
Molecule = Cc1ccc(O)c(C=NNC(=S)Nc2ccc(Br)cc2)c1; target = Aldo-keto reductase family 1 member A1; test = inhibitor; system = Bos taurus (calf); conditions = 100 µM, with: D-glucuronate substrate; inhibition = 23.8%
Molecule = CCCCCCCCCCCCNC(=O)CCCC; target = EPHX1; test = enzyme activity, inhibitor, fluorescence; conditions = 100 µM; inhibition = -15%
Molecule = Cc1ccc(O)c(C=NNC(=S)NCCc2ccccc2)c1; target = Aldo-keto reductase family 1 member A1; test = inhibitor; system = Bos taurus (calf); conditions = 100 µM, with: D-glucuronate substrate; inhibition = 39.9%
Molecule = [H]/N=C(/N)N1CCC[C@H]1c1nc(-c2ccc(OCCC=CCCCC)c(C(F)(F)F)c2)no1; target = SPHK2 (Homo sapiens, UniProt Q9NRA0); test = enzyme activity, inhibitor, radiometric; conditions = 0.3 µM; inhibition = 54%
Molecule = CC(=O)S[C@@H]1CC2=CC(=O)CC[C@]2(C)[C@H]2CC[C@@]3(C)[C@@H](CC[C@@]34CCC(=O)O4)[C@H]12; target = SLC51A with OSTβ; test = transport; system = Flp-In-293 cells overexpressing OSTα/β; conditions = 100 µM, 30 s, with: DHEAS 20 µM; inhibition = no inhibition
Molecule = O=S(=O)(Sc1cccc(Br)c1)c1cccc(Br)c1; target = tubulin; test = colchicine binding; conditions = 50 µM, 10 min, 37 °C, with: [3H]colchicine 5.0 µM; inhibition = 99 ± 1%
Molecule = Cc1nc2sccn2c(=O)c1CCN1CCC(=C(c2ccccc2)c2ccc(F)cc2)CC1; target = HTR1D (Homo sapiens, UniProt P28221); test = agonist response, antagonist; conditions = 10 µM, with: reference agonist at EC90; inhibition = 108%
Molecule = CCc1c(Cl)c(O)c(Cl)c(O)c1C(=O)O[C@H]1[C@H](O)[C@H](OC)[C@H](OC/C2=C\C=C\C[C@H](O)/C(C)=C/[C@H](CC)[C@@H](O[C@@H]3OC(C)(C)[C@@H](OC(=O)C(C)C)[C@H](O)[C@@H]3O)/C(C)=C/C(C)=C/C[C@@H]([C@@H](C)O)OC2=O)O[C@@H]1C; target = SLC51A with OSTβ; test = DHEAS uptake, inhibitor; system = Flp-In-293 expressing OSTα/β; conditions = 100 µM, 30 s, co-incubation only, with: DHEAS 20 µM; inhibition = > 80%
Molecule = O=C(O)c1cc(N(Cc2ccccc2O)Cc2cc(O)ccc2O)ccc1O; target = CNGA1; test = cGMP-activated current, inhibitor, inside-out patch clamp; system = Xenopus oocytes; conditions = 10 µM, with ATP, with: cGMP 2 mM; inhibition = no effect
Molecule = Brc1cccc(SSc2cccc(Br)c2)c1; target = tubulin; test = colchicine binding, [3H]colchicine binding; conditions = 5 µM, 10 min, 37 °C, with: [3H]colchicine 5.0 µM; inhibition = 6.6 ± 5%
Molecule = COc1cccc(-n2c(-c3ccc([N+](=O)[O-])cc3)cs/c2=N/N=C\c2c[nH]c3ccccc23)c1; target = Aldo-keto reductase family 1 member A1; test = enzyme activity, inhibitor, absorbance; conditions = 1 mM; inhibition = 12.4%
Molecule = O=S(=O)(Sc1cccc(F)c1)c1cccc(F)c1; target = tubulin; test = colchicine binding, [3H]colchicine binding; conditions = 50 µM, 10 min, 37 °C, with: [3H]colchicine 5.0 µM; inhibition = 97 ± 0.1%
Molecule = GMGPRGLLL; target = Qa-1 (mouse), soluble; test = binding, SPR competition; system = peptide; conditions = 20 µM, 25 °C, 2% DMSO, unit not given; how to read = baseline: maximal blocking by 20 µM Qdm; inhibition = 0.59
Molecule = C/C(=N/N=c1/scc(-c2ccc([N+](=O)[O-])cc2)n1Cc1ccccc1)c1ccc2c(c1)OCCO2; target = Aldo-keto reductase family 1 member A1; test = enzyme activity, inhibitor, absorbance; conditions = 1 mM; inhibition = 23.6%
Molecule = Clc1cccc(SSc2cccc(Cl)c2)c1; target = tubulin; test = colchicine binding, [3H]colchicine binding; conditions = 5 µM, 10 min, 37 °C, with: [3H]colchicine 5.0 µM; inhibition = 12 ± 2%
Molecule = C/C(=N/N=c1/scc(-c2ccc([N+](=O)[O-])cc2)n1-c1ccccc1)c1ccc2c(c1)NC(=O)CO2; target = Aldo-keto reductase family 1 member A1; test = enzyme activity, inhibitor, absorbance; conditions = 1 mM; inhibition = 31.4%
Molecule = O=S(=O)(Sc1ccc(F)cc1)c1ccc(F)cc1; target = tubulin; test = colchicine binding; conditions = 5 µM, 10 min, 37 °C, with: 5.0 µM [3H]colchicine; inhibition = 52 ± 5%
Molecule = C/C(=N/N=c1/scc(-c2ccc([N+](=O)[O-])cc2)n1-c1c(C)cccc1C)c1ccc2c(c1)NC(=O)CO2; target = Aldo-keto reductase family 1 member A1; test = enzyme activity, inhibitor, absorbance; conditions = 1 mM; inhibition = 19.6%
Molecule = Fc1cccc(SSc2cccc(F)c2)c1; target = tubulin; test = colchicine binding, [3H]colchicine binding; conditions = 5 µM, 10 min, 37 °C, with: [3H]colchicine 5.0 µM; inhibition = 1.4 ± 4%
Molecule = CC[C@@H](C)[C@H](NC(=O)C(=O)CCCCc1ccc(OC)cc1)C(=O)NCC(=O)OC(C)(C)C; target = PLA2G5; test = enzyme activity, mixed micelle; conditions = 0.091 mole fraction; inhibition = 48.2 ± 9.3%
Molecule = C/C(=N/N=c1/scc(-c2ccc(Br)cc2)n1-c1ccccc1)c1ccc2c(c1)OCCO2; target = Aldo-keto reductase family 1 member A1; test = enzyme activity, inhibitor, absorbance; conditions = 1 mM; inhibition = 23.7%
Molecule = CCCCCCCCCCCCCCC(=O)C(=O)N[C@H](C(=O)NCC(=O)OC(C)(C)C)C(C)C; target = PLA2G5; test = enzyme activity, inhibitor, mixed micelle; conditions = 0.091 mole fraction; inhibition = ~80%
Molecule = Cc1ccc(O)c(C=NNC(=S)Nc2ccc(F)cc2F)c1; target = Aldo-keto reductase family 1 member A1; test = inhibitor; system = Bos taurus (calf); conditions = 100 µM, with: D-glucuronate substrate; inhibition = 33.6%
Molecule = O=CN/C=C/c1cc(O)ccc1O; target = CNGA1; test = cGMP-activated current, inhibitor, inside-out patch clamp; system = Xenopus oocytes; conditions = 25 µM, with ATP, with: cGMP 2 mM; inhibition = no effect
Molecule = Cc1ccc(O)c(C=NNC(=S)NC2CCCCC2)c1; target = Aldo-keto reductase family 1 member A1; test = inhibitor; system = Bos taurus (calf); conditions = 100 µM, with: D-glucuronate substrate; inhibition = < 50%
Molecule = Fc1ccc(SSc2ccc(F)cc2)cc1; target = tubulin; test = colchicine binding, [3H]colchicine binding; conditions = 50 µM, 10 min, 37 °C, with: [3H]colchicine 5.0 µM; inhibition = 17 ± 4%

Excerpt of the above:
Molecule = Cc1ccc(O)c(C=NNC(=S)NCCc2ccccc2)c1; target = Aldo-keto reductase family 1 member A1; test = inhibitor; system = Bos taurus (calf); conditions = 100 µM, with: D-glucuronate substrate; inhibition = 39.9%
Molecule = [H]/N=C(/N)N1CCC[C@H]1c1nc(-c2ccc(OCCC=CCCCC)c(C(F)(F)F)c2)no1; target = SPHK2 (Homo sapiens, UniProt Q9NRA0); test = enzyme activity, inhibitor, radiometric; conditions = 0.3 µM; inhibition = 54%
Molecule = CC(=O)S[C@@H]1CC2=CC(=O)CC[C@]2(C)[C@H]2CC[C@@]3(C)[C@@H](CC[C@@]34CCC(=O)O4)[C@H]12; target = SLC51A with OSTβ; test = transport; system = Flp-In-293 cells overexpressing OSTα/β; conditions = 100 µM, 30 s, with: DHEAS 20 µM; inhibition = no inhibition
Molecule = O=S(=O)(Sc1cccc(Br)c1)c1cccc(Br)c1; target = tubulin; test = colchicine binding; conditions = 50 µM, 10 min, 37 °C, with: [3H]colchicine 5.0 µM; inhibition = 99 ± 1%
